Results from different studies.
Each numbered part is a random draw from the data of one study; scales do not carry over between parts.

Set 1 — method: universal PBM; molecule type: double-stranded DNA, one strand shown; matrix: in vitro; tested at: 600 nM; direction: higher = stronger binding; measurement: E-score
Target: Sal-like protein 4, full length isoform A (SALL4, Homo sapiens, UniProt Q9UJQ4, residues 1-1053)
Sequence of UniProt Q9UJQ4 (whole entry, looked up): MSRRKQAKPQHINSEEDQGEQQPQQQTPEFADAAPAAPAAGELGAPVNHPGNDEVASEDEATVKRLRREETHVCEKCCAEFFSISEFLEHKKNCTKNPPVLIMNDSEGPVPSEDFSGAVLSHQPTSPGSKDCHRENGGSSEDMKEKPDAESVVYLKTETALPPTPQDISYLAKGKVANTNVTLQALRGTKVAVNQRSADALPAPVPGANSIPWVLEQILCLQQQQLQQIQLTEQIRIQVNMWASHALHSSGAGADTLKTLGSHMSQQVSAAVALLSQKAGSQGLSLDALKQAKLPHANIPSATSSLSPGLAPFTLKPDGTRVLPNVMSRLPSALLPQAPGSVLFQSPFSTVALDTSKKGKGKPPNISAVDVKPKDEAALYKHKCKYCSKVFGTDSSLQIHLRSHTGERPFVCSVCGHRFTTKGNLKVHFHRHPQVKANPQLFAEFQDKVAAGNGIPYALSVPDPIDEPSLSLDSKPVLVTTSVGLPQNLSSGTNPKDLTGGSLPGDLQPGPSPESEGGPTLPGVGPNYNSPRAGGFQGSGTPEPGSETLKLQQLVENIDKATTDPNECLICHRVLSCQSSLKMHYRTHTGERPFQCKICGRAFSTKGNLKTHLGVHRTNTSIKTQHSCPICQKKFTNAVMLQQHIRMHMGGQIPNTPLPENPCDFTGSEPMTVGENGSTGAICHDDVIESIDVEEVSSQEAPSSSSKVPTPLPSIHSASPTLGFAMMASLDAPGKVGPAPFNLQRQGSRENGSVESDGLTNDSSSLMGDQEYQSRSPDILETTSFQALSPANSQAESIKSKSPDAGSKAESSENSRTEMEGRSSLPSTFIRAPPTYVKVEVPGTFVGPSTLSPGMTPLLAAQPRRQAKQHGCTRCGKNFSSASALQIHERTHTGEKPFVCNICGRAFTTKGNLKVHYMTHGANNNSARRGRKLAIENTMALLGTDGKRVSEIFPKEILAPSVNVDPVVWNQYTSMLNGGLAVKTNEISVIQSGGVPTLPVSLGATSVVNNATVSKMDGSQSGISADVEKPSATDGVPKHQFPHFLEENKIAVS
Notes: 8-mer, flanks averaged, mean of replicates
AAGCACTT: 0.0911
CAGCCGGA: -0.158
TCCGGGCA: -0.296
AAGCCTCT: -0.123
GCACTATA: 0.136
CACATTGG: -0.00994
ACCAATAG: 0.0754
AATTCATA: 0.388
ACATCCTG: 0.158
CTGGTAGA: -0.0344
GTGCATCA: 0.0337
ACCCCTTG: -0.312
CTAATTTC: 0.136
CAGCATTA: 0.177
CCGACCGG: -0.387
AGCGCACC: -0.198
CCAGTCCA: -0.319
ATTAGGAA: 0.206

Set 2 — method: EMSA with sequencing; molecule type: double-stranded DNA, one strand shown; matrix: in vitro; tested at: 10 and 20 nM; baseline: negative control set to 0; direction: higher = stronger binding; measurement: normalised bound fraction
Target: Hepatocyte nuclear factor 3-alpha (Foxa1, Mus musculus, UniProt P35582, residues 1-468, full length assumed)
Notes: whole designed probe, mean of two concentrations, ends assumed
Constant ends, left off below: GTGAGCGGTGCCCATTGATGGGGAAC … TTTCACTGGGATCGTGGGGAC
Construct (chain): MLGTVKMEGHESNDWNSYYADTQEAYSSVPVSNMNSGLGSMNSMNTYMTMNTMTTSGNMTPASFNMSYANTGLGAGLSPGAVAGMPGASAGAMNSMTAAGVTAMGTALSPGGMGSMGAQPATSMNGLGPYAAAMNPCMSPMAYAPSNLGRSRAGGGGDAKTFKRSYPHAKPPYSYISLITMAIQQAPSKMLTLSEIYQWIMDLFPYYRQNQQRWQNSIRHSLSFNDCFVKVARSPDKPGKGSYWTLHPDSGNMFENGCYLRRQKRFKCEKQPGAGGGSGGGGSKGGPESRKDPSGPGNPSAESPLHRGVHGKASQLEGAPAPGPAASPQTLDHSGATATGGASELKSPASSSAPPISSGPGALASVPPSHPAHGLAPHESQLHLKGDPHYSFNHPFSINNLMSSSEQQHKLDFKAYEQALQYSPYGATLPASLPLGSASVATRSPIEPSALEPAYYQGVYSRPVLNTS
ATCTTCCCCCTCTTCCTTGCCCCACCAGCTCACCTTCCCGGGTTGTTTACTTTGAGCAAAGTAAACAAAGCCGGCATTCGTTAACCCTCTTCTGGCGCAAACTGCCAGAGCAAACAGATCTAACATGGTCCTTTGGCGACGCCAGGCTCCGGGAGAGCAAAGCACCGTGTCAGGGCCATGATCCGGGGTGGCC: 0.543 ratio
CACTAGCCAAGCAAATGCTACCTTTCCTAAATTACGCCGTGGTATTGTGTACGACAGCAGCAGGGTTGCTATTTTAAAATGGGATTGCGTAAAATAAACATGTGCCCAGATGCTAAGTTGATGAACAGGAAGTATTAATTGATGCTCTGGTACGGCCTCGTGCTTTCCAGTGCTTCCATTTGTGTGACGATCC: 0.25 ratio
TTCTACTCCAGTTCCAGAAAAGTTATGGAAGTCTCAGTTCCTGTGTGTGCCATCACTTTAGCCTCCAGGAAGCTATCTCTTAGTCTCTCCTACTGTAAACATGTCTCCCTGAGTCACCACAGCATCTGTTGTTTCTAGGTGAAGGACTAATACAAATAACAGGGAGGCGCCTGGCATCTGGCCACCTGAACAC: 0.282 ratio
ATCTTCCCCCTCTTCCTTGCCCCACCAGCTCACCTTCCCGGGTATCTGCAAATAAGTATTTATTTTCAAGCCGGCATTCGTTAACCCTCTTCTGGCGCAAACTGCTGTTTGCTCTGGATGAATCATGGTCCTTTGGCGACGCCAGGCTCCGGGAGAGCAAAGCACCGTGTCAGGGCCATGATCCGGGGTGGCC: 0.21 ratio
GTACAACTTCTCTCCAAGACCTTACTTATATATCTAAATTTCATACTTCATAACATATAAAATAAATCCTCTTCTCAGCTTCTTTGTACCAACATGTTTACATTGTACATTTTTACTCTCTTTAGAATTTTATTTTTTTTAAATACAAAAGAAAAAATAGGGCAGATATTGAAAAGCATATGTATAAATTCTT: 0.355 ratio
ACGTTACAAGCACAGGGTGTACAGAAGCATTCCTGTTTCCATGAGTGAATCAACACAGCAATGCCCTACGTGCCAACAGAGCATGAGCTCATGTATTTACTCAACCTTGCTTTCTGTGTTAGAAAGAGCCCTGCATTAGGAAATCTGGACTCCCAGAGACAAAGGGTCACGCATGCCGGCCTCCTGACCTCAG: 0.257 ratio
TGATGATACGTTATAGCATTTCTCTGCTCTGTAAGAGAGGCACCAGGGTCGTGTGCTGGGTCTGGGGCACATCCGGTTTTGTCCATTCGCTGCTGTTGACTCTGGTGTCGGCCGCTGGTGAGCTGGCTGTAGCTGGTCACCTCTGGGTGGTTTCTGGGGCGGTCGCAGGCTGACTAACACACCAAAGGTCAGC: -0.013 ratio
GGCTAAAATGACTATCAATGGCCCTGGGCTGGCCCACACCTAAAGACTGTAAAACAGGAGAGCAAACAATTGACTTCTCCCTGACTTGCTAAGTCAACAAACCACATGAGTCAGCAAACCTCTTTTTACTGCCTGACCTTCCTTAACATCTCCTTATCGTATTCTGAAATTCCTATTCTGCTGGCTGGAATCT: 0.473 ratio

Set 3 — method: protein binding microarray; molecule type: double-stranded DNA, one strand shown; matrix: in vitro; tested at: not given; baseline: not given; direction: higher = stronger binding; measurement: E-score
Target: Histone acetyltransferase KAT6A, winged helix 1, GST fusion (KAT6A, Homo sapiens, UniProt Q92794, residues 1-85)
Notes: 8-mer, flanks averaged, mean of 2 arrays, mostly near background
Residues (chain): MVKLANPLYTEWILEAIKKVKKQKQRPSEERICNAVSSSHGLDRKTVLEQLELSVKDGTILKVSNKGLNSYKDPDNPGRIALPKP
AGATACTC: -0.0396
CTTAATGC: -0.0353
CATCGCGC: 0.369
AAACCCAT: -0.143
CCGCCTCG: 0.279
ACAAATCT: -0.185
GATCTCCA: -0.219
AGGGTATA: -0.0894
CCTCGGCC: 0.145
CATATAAC: -0.0603
CATATTGC: 0.154
ACGTTAAG: -0.0482
GCACATTA: -0.00169
ATGGCCCG: 0.309
AGCTGAAG: -0.159
AATAAATG: -0.207
GCGCTCAA: 0.29
ATGGATTG: -0.134
ATAGGCGC: 0.229
ATGATGAA: -0.285
CCTTCTTC: -0.0833
AACGCCAA: -0.124
CAGAAGGA: -0.13
CCTAGTCA: -0.229
ATCAATTG: -0.0954

Set 4 — method: protein-binding microarray; molecule type: double-stranded DNA, one strand shown; matrix: in vitro; tested at: 2200 nM top; notes: 60-bp whole probe; together with: salmon DNA 0.4 mg/ml; baseline: random background probes; direction: higher = stronger binding; measurement: fitted relative affinity; constant ends, left off below: GCCTAGCAC … GTCTTGATTCGCTTGACGCTGCTG
Target: Interferon regulatory factor 7, full length, phosphomimetic (IRF7, Homo sapiens, UniProt Q92985, residues 1-503, S471D/S472D/S475D/S476D/S477D/S483D/S484D/S487D)
Sequence of UniProt Q92985 (whole entry, unmodified, looked up): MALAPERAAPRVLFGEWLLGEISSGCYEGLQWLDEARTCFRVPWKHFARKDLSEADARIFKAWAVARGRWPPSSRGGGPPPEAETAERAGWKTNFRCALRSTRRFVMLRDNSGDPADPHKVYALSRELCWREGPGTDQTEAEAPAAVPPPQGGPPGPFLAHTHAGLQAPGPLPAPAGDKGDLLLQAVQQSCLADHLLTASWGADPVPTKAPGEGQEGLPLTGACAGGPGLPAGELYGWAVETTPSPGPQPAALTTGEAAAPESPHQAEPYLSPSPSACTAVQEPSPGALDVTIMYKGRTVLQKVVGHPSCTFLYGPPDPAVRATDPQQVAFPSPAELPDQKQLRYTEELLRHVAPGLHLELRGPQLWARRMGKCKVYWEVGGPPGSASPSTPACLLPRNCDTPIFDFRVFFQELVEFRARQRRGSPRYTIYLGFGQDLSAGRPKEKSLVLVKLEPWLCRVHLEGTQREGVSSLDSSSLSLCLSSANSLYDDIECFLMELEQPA
TTAGGTTTCCTACTGCTTTCGTGCTAG: 2.22 z-score
CGGAATTTCCCTCTGCTCCTGTGCTAG: 1.55 z-score
GACGATTTCCTTTCCCTGACGTGCTAG: 3.04 z-score
GAAGGTTTCCTTATCCTGACGTGCTAG: 1.97 z-score
TTTCTTTTGCTTGTTCTTAGCGTGCTA: 4.05 z-score
GACGGTTCCCTTTTACTGACGTGCTAG: 2.73 z-score
CCTCCCTCTCCCGGAGTTCCGTGCTAG: 0.452 z-score
TTAGGTTTCGGATTCGGTTAGTGCTAG: 8.72 z-score
TTAGGACTGGTCTATCGGTTAGTGCTA: -0.407 z-score
GACGGGCTGGGGTATCGGGACGTGCTA: -0.854 z-score
CTCTGCTTGTGTCTGGGATTGTGCTAG: 0.826 z-score
TTAGGACTGCAACTGCTTTAGTGCTAG: -0.201 z-score
CACGATATCGGGTTTCGAGACGTGCTA: 1.87 z-score
GACGATCTCGGACTGGGGACGTGCTAG: -0.435 z-score
TTAGCACTGAGTATCGATTAGTGCTAG: -0.233 z-score
TCAATGATTTTTTTCATACTGTGCTAG: 0.418 z-score
TTAGATCTCAGTCACGATTAGTGCTAG: -0.163 z-score
TCAACTTTCTTTACTTCACTGTGCTAG: 1.99 z-score
TCATATACCCATGTAGAACTGTGCTAG: 0.986 z-score
TTAGAAGTGGGGTTTCGATTAGTGCTA: 2.48 z-score
TTAGGTTCCGGTTGCGGTTAGTGCTAG: 2.49 z-score
ATGTATATATGTGTATATATGTGCTAG: 1.04 z-score
GGTTTTTACTTTCTGAATGCGTGCTAG: 5.23 z-score
TTAGGTTTCCTTTACCTTTAGTGCTAG: 1.94 z-score
TTAGGACTGGACAATGGGTTAGTGCTA: -0.586 z-score

Set 5 — method: RNAcompete; molecule type: RNA; matrix: in vitro; tested at: 20 nM; notes: 7-mer, probes averaged, single round; baseline: mean of 7-mers; direction: higher = stronger binding; measurement: 7-mer Z-score
Target: PABPC1L2, full length, GST fusion (mouse, UniProt A0ABA7IW68)
Target sequence (chain): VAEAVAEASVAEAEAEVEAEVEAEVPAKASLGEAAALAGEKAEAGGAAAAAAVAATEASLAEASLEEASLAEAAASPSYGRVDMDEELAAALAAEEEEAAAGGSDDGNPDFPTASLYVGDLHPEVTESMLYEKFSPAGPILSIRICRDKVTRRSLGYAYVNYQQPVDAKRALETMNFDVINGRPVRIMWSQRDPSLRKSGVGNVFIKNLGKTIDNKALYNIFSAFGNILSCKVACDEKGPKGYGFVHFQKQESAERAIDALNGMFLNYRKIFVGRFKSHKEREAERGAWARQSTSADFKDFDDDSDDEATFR
CAAGCAC: -0.0554
ACAGUGC: -0.0772
GUUCGAG: -0.277
AUAUGGA: 0.233
GAGGGCC: 0.0605
UGAACGC: -0.112
GGCCAGA: 0.271
UAUGUCU: -0.18
CUUUACG: -0.199
ACCUGAG: -0.166
CAACCGU: -0.253
ACCGAUU: -0.153
AAAGCAA: 1.33
UACACCA: -0.137
CCUGUGC: -0.217
UGUAUAC: -0.177
ACCCGAU: -0.161
CGAUACG: -0.108

Set 6 — method: aptamer microarray, sandwich; molecule type: DNA with 2'F-ANA; matrix: in vitro; tested at: 200 nM; together with: Cy3 exosite-II aptamer, 400 nM; direction: higher = stronger binding; measurement: mean fluorescence intensity; oligonucleotide: GGTTGGTGTGGTTGG
Target: Prothrombin, mature alpha-thrombin (F2, Homo sapiens, UniProt P00734)
Notes: whole 15-mer aptamer, many near background
2'F-ANA at 2 3 4 5 6 9 12: 184 a.u.
2'F-ANA at 1 2 3 4 5 6 8 10: 51.8 a.u.
2'F-ANA at 4 5 7 8 10: 47.8 a.u.
2'F-ANA at 1 2 4 5 7 11 12 13 15: 69.8 a.u.
2'F-ANA at 1 2 4 6 9 13 14: 49 a.u.
2'F-ANA at 3 6 7 8 10 11 13 14: 375 a.u.
2'F-ANA at 1 3 8 11 15: 297 a.u.
2'F-ANA at 5 8 9 10 11 12 15: 76 a.u.
2'F-ANA at 2 4 5 10 12 15: 49.3 a.u.
2'F-ANA at 2 3 7 10 11 13 14 15: 289 a.u.
2'F-ANA at 2 5 6 7 9 10 14: 49.5 a.u.
2'F-ANA at 1 3 5 7 9 10 11 12 13 15: 50.3 a.u.
2'F-ANA at 2 5 7 9 11 13 15: 51 a.u.
2'F-ANA at 4 5 6 8 9 11 15: 57.6 a.u.
2'F-ANA at 5 6 7 9 11 13 14: 108 a.u.
2'F-ANA at 3 4 5 9 11 12 14: 49.9 a.u.
2'F-ANA at 5 9 10 13: 50.2 a.u.
2'F-ANA at 7 8 9 10 13 15: 195 a.u.
2'F-ANA at 1 3 4 6 9 10 11 14: 52.5 a.u.
2'F-ANA at 1 2 7 9 10 11 13 14 15: 75.2 a.u.
2'F-ANA at 1 5 6 8 9 12 15: 117 a.u.

Further values, each from its own experiment
SNARRSLNFGGST  score relative, wild type, peptide (human cyclin E2; cyclin docking binding, deep mutational scanning; peptide, yeast cyclin E2-Cln2 system; direction not given): 0
